{"data": "Measured values pooled from the literature", "note": "Each line is one published result; not all experiments were run side by side. Numbers after ± are the reported error."}
{"SMILES": "NC(=O)c1ncn([C@@H]2O[C@H](CO)[C@@H](O)[C@H]2O)n1", "organism": "Enterovirus B", "test system": "HeLa, coxsackie virus B4", "EC50 [µM]": 250}
{"SMILES": "Cn1nc2c(=O)n(C3CC3)cnc2c1[C@](O)(c1cnc(C(F)(F)F)c(Cl)c1)C(F)(F)F", "organism": "Saccharomyces cerevisiae", "test": "cell growth", "EC50 [µM]": "22 ± 9.2"}
{"SMILES": "CNC(=O)[C@@]12C[C@@H]1[C@@H](n1cnc3c(NC)nc(C#Cc4ccc(Cl)s4)nc31)[C@H](O)[C@@H]2O", "organism": "Enterovirus A71", "test": "viral replication, neutral red", "test system": "Vero 76, Tainan/4643/98", "EC50 [µM]": "> 100"}
{"SMILES": "NC(=O)c1ncn([C@@H]2O[C@H](CO)[C@@H](O)[C@H]2O)n1", "organism": "parainfluenza-3 virus", "test": "virus-induced cytopathicity", "test system": "Vero", "EC50 [µM]": 85}
{"SMILES": "CCC(C)n1ncn(-c2ccc(N3CCN(c4ccc(OCC5COC(Cn6cncn6)(c6ccc(Cl)cc6Cl)O5)cc4)CC3)cc2)c1=O (centres unmarked)", "organism": "Cardiovirus A", "test": "viral replication, inhibitor", "setting": "72 h", "EC50 [µM]": "0.57 ± 0.02"}
{"SMILES": "NC(=O)c1ncn([C@@H]2O[C@H](CO)[C@@H](O)[C@H]2O)n1", "organism": "Dengue virus", "test": "viral replication", "test system": "BHK-21, DENV1", "setting": "120 h", "EC50 [µM]": 46}
{"SMILES": "[H]/N=C(\\N/C(=N/[H])Nc1ccc(Cl)cc1)NC(C)C", "organism": "Saccharomyces cerevisiae", "test": "cell growth", "EC50 [µM]": 3.8}
{"SMILES": "Nc1ncnc2c1ccn2[C@H]1[C@H](O)[C@H](O)[C@]2(CO)C[C@H]12", "organism": "Enterovirus A71", "test": "viral replication, neutral red", "test system": "Vero 76, Tainan/4643/98", "EC50 [µM]": "> 100"}
{"SMILES": "CC(C)(O)Cc1nc(N)[nH]c(=O)c1Br", "organism": "parainfluenza-3 virus", "test": "virus-induced cytopathicity", "test system": "Vero", "EC50 [µM]": "> 100"}
{"SMILES": "N#C[C@@]1(n2ccc(N)nc2=O)O[C@H](CO)[C@@H](O)[C@H]1O", "organism": "dengue virus", "test": "viral replication, cell-based", "EC50 [µM]": "> 10"}
{"SMILES": "Cn1nc2c(=O)n(C3CC3)ccc2c1[C@](O)(c1cnc(C(F)(F)F)c(Cl)c1)C(F)(F)F", "organism": "Saccharomyces cerevisiae", "test": "cell growth", "EC50 [µM]": "21 ± 11"}
{"SMILES": "Cc1cc(C)c2sc(NC(=O)c3cc4ccccc4o3)nc2n1", "organism": "Usutu virus", "test": "cytopathic effect, neutral red uptake", "test system": "Vero 76, TC-508", "EC50 [µM]": "> 32"}
{"SMILES": "Nc1nc(CCc2ccccc2)c(Br)c(=O)[nH]1", "organism": "parainfluenza-3 virus", "test": "virus-induced cytopathicity", "test system": "Vero", "EC50 [µM]": "> 100"}
{"SMILES": "NC(=O)c1nc(F)c[nH]c1=O", "organism": "Dengue virus", "test": "viral replication", "test system": "BHK-21, DENV2", "setting": "96 h", "EC50 [µM]": 20}
{"SMILES": "N#Cc1c(Nc2ccc(F)cc2)n[nH]c1NS(=O)(=O)c1ccc2ccccc2c1", "organism": "dengue virus", "test": "viral replication", "test system": "Huh-7, New Guinea C", "EC50 [µM]": "> 7.7"}
{"SMILES": "CC[C@@](N)(c1cnc(C(F)(F)F)c(Cl)c1)c1c2ncn(C3CC3)c(=O)c2nn1C", "organism": "Saccharomyces cerevisiae", "test": "cell growth", "EC50 [µM]": "32 ± 0.71"}
{"SMILES": "NCCOCC(=O)NC1CCN(S(=O)(=O)c2cc(C(=O)Nc3cc(F)c(F)c(F)c3)ccc2F)CC1", "organism": "Hepatitis B virus", "test": "viral replication, refers to: intracellular HBV DNA", "test system": "HepG2.2.15", "setting": "6 days", "EC50 [µM]": "> 10"}
{"SMILES": "Nc1ncnc2c1ncn2C[C@H](O)CO", "organism": "parainfluenza-3 virus", "test": "virus-induced cytopathicity", "test system": "Vero", "EC50 [µM]": "> 250"}
{"SMILES": "CN1CCN(C(c2ccc(Cl)cc2)c2ccc(Cl)cc2)CC1", "organism": "dengue virus", "test": "viral replication, reporter virus particles", "test system": "Huh-7.5.1", "setting": "48 h", "EC50 [µM]": 4.62}
{"SMILES": "COCC(=O)N1CCC[C@H](C(=O)NCc2nc(-c3ccccc3)cs2)C1", "organism": "Plasmodium falciparum", "test system": "Dd2 β5 S28L resistant", "EC50 [µM]": "2.4 ± 0.58"}
{"SMILES": "O=c1ccn([C@@H]2O[C@H](CO)[C@@H](O)[C@H]2O)c(=S)[nH]1", "organism": "Dengue virus", "test": "viral replication", "test system": "BHK-21, DENV1", "EC50 [µM]": 2.6}
{"SMILES": "CCCc1nc(N)[nH]c(=O)c1Br", "organism": "parainfluenza-3 virus", "test": "virus-induced cytopathicity", "test system": "Vero", "EC50 [µM]": "> 100"}
{"SMILES": "Nc1ncnc2c1ccn2[C@@]12C[C@H]1[C@H](CO)[C@@H](O)[C@H]2O", "organism": "Enterovirus A71", "test": "viral replication, neutral red", "test system": "Vero 76, Tainan/4643/98", "EC50 [µM]": "> 100"}
{"SMILES": "Nc1nc(CC(O)c2ccccc2C(F)(F)F)c(Br)c(=O)[nH]1 (centres unmarked)", "organism": "parainfluenza-3 virus", "test": "virus-induced cytopathicity", "test system": "Vero", "EC50 [µM]": "> 100"}
{"SMILES": "CNC(=O)[C@@]12C[C@@H]1[C@@H](n1cnc3c(NCc4cccc(Cl)c4)nc(C#Cc4ccc(F)c(F)c4)nc31)[C@H](O)[C@@H]2O", "organism": "Enterovirus A71", "test": "viral replication, neutral red", "test system": "Vero 76, Tainan/4643/98", "EC50 [µM]": "> 15"}
{"SMILES": "C[C@H]1CN(c2n[nH]c3nc(N[C@H]4CC[C@H](NS(=O)(=O)CCC(F)(F)F)CC4)ncc23)CCO1", "organism": "Leishmania donovani", "test": "cell growth", "test system": "promastigotes, LdBOB CRK3 single knockout", "EC50 [µM]": "0.007 ± 0.0001"}
